Measured values pooled from the literature.
Protocols differ between the studies behind these lines. ± gives the spread as reported. Non-standard residues stand in square brackets, D forms with d. Where no end group is shown, it is not given here. No end group written: not given here.
Ferroportin: Ferroportin (Mus musculus, UniProt Q9JHI9)
Chain of UniProt Q9JHI9 (whole entry, looked up): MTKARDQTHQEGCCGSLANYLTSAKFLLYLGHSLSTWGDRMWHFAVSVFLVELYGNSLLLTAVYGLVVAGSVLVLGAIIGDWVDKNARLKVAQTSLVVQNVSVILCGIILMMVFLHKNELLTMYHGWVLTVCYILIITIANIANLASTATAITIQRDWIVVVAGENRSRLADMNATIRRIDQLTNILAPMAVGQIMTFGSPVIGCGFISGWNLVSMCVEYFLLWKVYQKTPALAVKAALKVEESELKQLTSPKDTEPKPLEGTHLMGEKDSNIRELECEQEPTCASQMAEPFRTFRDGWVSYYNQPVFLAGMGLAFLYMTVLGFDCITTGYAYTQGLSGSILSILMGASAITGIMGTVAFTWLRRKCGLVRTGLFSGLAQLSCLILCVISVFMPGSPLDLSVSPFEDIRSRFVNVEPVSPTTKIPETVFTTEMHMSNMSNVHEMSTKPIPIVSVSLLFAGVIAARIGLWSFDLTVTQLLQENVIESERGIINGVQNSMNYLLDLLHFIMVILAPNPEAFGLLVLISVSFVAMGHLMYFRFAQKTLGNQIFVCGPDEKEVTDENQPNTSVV
B1: UGT1A9 (Homo sapiens, UniProt O60656); chain GKLLVVPMDGSHWFTMRSVVEKLILRGHEVVVVMPEVSWQLGRSLNCTVKTYSTSYTLEDLDREFKAFAHAQWKAQVRSIYSLLMGSYNDIFDLFFSNCRSLFKDKKLVEYLKESSFDAVFLDPFDNCGLIVAKYFSLPSVVFARGILCHYLEEGAQCPAPLSYVPRILLGFSDAMTFKERVRNHIMHLEEHLLCHRFFKNALEIASEILQTPVTEYDLYSHTSIWLLRTDFVLDYPKPVMPNMIFIGGINCHQGKPLPMEFEAYINASGEHGIVVFSLGSMVSEIPEKKAMAIADALGKIPQTVLWRYTGTRPSNLANNTILVKWLPQNDLLGHPMTRAFITHAGSHGVYESICNGVPMVMMPLFGDQMDNAKRMETKGAGVTLNVLEMTSEDLENALKAVINDKSYKENIMRLSSLHKDRPVEPLDLAVFWVEFVMRHKGAPHLRPAAHDLTWYQYHSLDVIGFLLAVVLTVAFITFKCCAYGYRKCLGKKGRVKKAHKSKTH
B2: chain SAGTSCVPGWAIPHNPLPSCRWYVTSRTCGIGPRLPWPELKRRCCRELADIPAYCRCTALSILMDGAIPPGPDAQLEGRLEDLPGCPREVQRGFAATLVTEAECNLATIS
B3: chain DFVLDNEGNPLENGGTYYILSDITAFGGIRAAPTGNERCPLTVVQSRNELDKGIGTIISSPYRIRFIAEGHPLSLKFDSFAVIMLCVGIPTEWSVVEDLPEGPAVKIGENKDAMDGWFRLERVSDDEFNNYKLVFCPQQAEDDKCGDIGISIDHDDGTRRLVVSKNKPLVVQFQKLDKESL
Chain of UniProt P56817 (whole entry, looked up): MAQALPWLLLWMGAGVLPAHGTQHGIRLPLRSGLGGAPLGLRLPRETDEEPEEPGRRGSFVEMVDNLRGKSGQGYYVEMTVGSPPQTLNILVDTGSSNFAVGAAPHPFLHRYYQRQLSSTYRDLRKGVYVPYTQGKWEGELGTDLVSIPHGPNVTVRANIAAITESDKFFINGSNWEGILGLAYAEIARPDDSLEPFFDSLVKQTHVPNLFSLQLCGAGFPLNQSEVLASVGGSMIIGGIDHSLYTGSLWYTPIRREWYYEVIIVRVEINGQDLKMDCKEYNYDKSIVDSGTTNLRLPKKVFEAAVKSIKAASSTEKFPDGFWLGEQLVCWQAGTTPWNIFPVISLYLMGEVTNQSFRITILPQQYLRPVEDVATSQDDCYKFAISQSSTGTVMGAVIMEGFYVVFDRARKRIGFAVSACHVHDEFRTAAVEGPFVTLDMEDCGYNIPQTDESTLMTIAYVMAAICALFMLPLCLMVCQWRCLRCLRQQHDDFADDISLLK
Chain of UniProt P11309 (whole entry, looked up): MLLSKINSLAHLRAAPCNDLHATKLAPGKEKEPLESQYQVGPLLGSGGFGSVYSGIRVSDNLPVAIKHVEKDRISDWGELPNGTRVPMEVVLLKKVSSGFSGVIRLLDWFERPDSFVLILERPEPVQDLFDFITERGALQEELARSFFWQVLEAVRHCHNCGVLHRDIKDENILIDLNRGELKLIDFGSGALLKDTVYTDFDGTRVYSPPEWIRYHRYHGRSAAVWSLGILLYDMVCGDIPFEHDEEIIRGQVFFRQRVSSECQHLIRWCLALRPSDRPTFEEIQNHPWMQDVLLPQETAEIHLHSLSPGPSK
Chain of UniProt P06344 (whole entry, looked up): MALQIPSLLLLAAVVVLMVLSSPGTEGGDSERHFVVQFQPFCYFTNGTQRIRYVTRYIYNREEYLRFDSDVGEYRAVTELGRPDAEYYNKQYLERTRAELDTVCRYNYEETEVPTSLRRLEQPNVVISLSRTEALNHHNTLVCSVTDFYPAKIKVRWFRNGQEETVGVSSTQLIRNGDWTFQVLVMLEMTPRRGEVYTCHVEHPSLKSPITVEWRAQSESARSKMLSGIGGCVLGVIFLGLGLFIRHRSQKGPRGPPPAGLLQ
Chain of UniProt P14438 (whole entry, looked up): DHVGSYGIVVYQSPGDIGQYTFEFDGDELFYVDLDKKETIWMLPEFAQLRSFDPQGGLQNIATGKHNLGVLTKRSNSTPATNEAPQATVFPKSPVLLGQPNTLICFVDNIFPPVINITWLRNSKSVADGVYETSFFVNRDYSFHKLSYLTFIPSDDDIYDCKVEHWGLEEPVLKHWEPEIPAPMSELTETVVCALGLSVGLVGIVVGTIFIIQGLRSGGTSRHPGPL
Chain of UniProt P53350 (whole entry, looked up): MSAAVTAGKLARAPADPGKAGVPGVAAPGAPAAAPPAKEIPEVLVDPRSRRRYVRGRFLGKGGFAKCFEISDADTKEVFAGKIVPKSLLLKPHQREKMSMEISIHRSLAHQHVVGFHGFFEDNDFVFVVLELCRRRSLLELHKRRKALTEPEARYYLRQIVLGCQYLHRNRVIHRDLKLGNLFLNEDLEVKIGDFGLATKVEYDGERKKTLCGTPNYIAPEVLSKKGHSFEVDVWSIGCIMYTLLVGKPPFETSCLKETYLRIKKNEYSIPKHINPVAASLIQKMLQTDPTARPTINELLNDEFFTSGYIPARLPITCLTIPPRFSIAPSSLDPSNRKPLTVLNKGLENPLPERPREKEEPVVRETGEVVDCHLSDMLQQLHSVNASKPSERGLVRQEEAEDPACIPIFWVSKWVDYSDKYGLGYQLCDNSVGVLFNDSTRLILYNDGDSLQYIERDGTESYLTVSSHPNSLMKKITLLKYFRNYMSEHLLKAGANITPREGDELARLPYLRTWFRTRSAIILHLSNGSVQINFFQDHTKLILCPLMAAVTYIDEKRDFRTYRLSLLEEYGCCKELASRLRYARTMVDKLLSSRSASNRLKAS

PTP1B
phosphorylation (Serine/threonine-protein kinase pim-1 (PIM1, Homo sapiens, UniProt P11309); substrate phosphorylation, substrate; 1 to 2 µM, 2 h, room temperature, together with: 100 nM kinase): not detected

acetyl-MBP(1-17)
relative abundance (H-2 class II histocompatibility antigen, A-U beta chain/H2-Aa (Mus musculus, UniProt P06344+P14438); peptide presentation by I-A, FT-ICR mass spectrometry; T cell-depleted B10.PL splenocytes, mouse; 16 h, 37 °C, together with: MBP 95 µg/mL; baseline: angiotensin internal standard): 2410

SGVPDRF
inhibition (peptide, human polyclonal IgM RF SOR; concentration not given, 5 µg/mL mAb II-481 coated, together with: RF at 50% max binding concentration): 90%

angiostatin
Kd (Integrin alpha-M/beta-2 (Homo sapiens, UniProt P05107+P11215); binding): 500 nM

GLHST (FITC-labelled, PEGylated)
Kd (Serine/threonine-protein kinase PLK1, polo-box domain (PLK1, Homo sapiens, UniProt P53350); binding, fluorescence polarization; together with: FITC-labelled peptide): 26.7 ± 2.8 nM

B1 (UGT1A9)
Vmax/Km (O=C(c1ccc(OCCN2CCCCC2)cc1)c1c(-c2ccc(O)cc2)sc2cc(O)ccc12; steady-state kinetics; pH 7.4, 37 °C): 20 µL/min/mg

YFCHQYL
inhibition (peptide, human polyclonal IgM RF MCC; concentration not given, 5 µg/mL mAb II-481 coated, together with: RF at 50% max binding concentration): 14%

KTEEISEVN[Sta]VAEF (statine residue; Sta = CC(C)C[C@H](N)[C@@H](O)CC(=O)O)
IC50 (Beta-secretase 1 (BACE1, Homo sapiens, UniProt P56817); enzyme activity, surface plasmon resonance; peptide; 1 h, pH 4.5, 37 °C, together with: APP peptide substrate): 29 nM

B2
Ki (Coagulation factor XII (F12, Homo sapiens, UniProt P00748); enzyme activity, inhibitor): 120 nM

DTHFAICIFCCGCCHRSKCGMCCKT-OH (hepcidin P5A; disulfide (positions not given here); ends not checked; sequence looked up)
ferroportin internalisation activity (Ferroportin; Fpn-GFP fluorescence loss, agonist, flow cytometry; peptide, HEK293 (ECR293) expressing mouse Fpn-GFP; 0.3 µM, 24 h, ponasterone-induced; baseline: native hepcidin-25): 77 ± 3%

B3
Ki (Plasma kallikrein (KLKB1, Homo sapiens, UniProt P03952); enzyme activity, inhibitor): 6150 nM

ATHFPICIFCCGCCHRSKCGMCCKT-OH (hepcidin D1A; disulfide (positions not given here); ends not checked; sequence looked up)
ferroportin internalisation activity (Ferroportin; Fpn-GFP fluorescence loss, agonist, flow cytometry; peptide, HEK293 (ECR293) expressing mouse Fpn-GFP; 0.3 µM, 24 h, ponasterone-induced; baseline: native hepcidin-25): 67 ± 5%

A few entries again:
angiostatin
Kd (Integrin alpha-M/beta-2 (Homo sapiens, UniProt P05107+P11215); binding): 500 nM
